Experimental data collected from several papers.
Every numbered part comes from another study and shows a few of its results, in no order.

Sample 1 — method: RNA Bind-n-Seq; form: RNA; medium: in vitro; tested at: not given; reference: input RNA pool; direction: higher = stronger binding
Target: RING finger protein unkempt homolog, zinc fingers 1-6, GST-SBP tag (UNK, Homo sapiens, UniProt Q9C0B0, residues 30-357)
Setting: RNA with constant flanks, human and mouse sites, ends assumed
Residues (chain): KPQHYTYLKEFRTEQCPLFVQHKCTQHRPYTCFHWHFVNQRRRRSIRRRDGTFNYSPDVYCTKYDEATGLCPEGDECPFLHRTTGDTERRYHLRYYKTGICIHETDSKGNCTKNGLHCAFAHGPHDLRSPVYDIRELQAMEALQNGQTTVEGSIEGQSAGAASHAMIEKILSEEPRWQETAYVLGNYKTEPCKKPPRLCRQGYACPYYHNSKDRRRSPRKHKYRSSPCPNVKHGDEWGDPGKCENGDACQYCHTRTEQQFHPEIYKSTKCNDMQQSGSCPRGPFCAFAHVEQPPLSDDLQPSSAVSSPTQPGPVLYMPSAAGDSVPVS
For `GGGAGUUCUACAGUCCGACGAUCACUGUGGUUUAUGGGCCACCUCCUGCUGGGGCCCCCAUCAUAUACGGACCUCCUCCUGCCAACUUCGCUGUUCCCCUUGUCCCCGCGGGUGUGCAGCAUUGCAACAUCCCAGAGCACCAUCAACAGAGGAUUGAGCAUCA`, the bound/input enrichment was 0.076 ratio.
The bound/input enrichment of `GGGAGUUCUACAGUCCGACGAUCUCCCGGCGCCAUGUGAGGGGGCUCGGGGGCCGCGGGGGGCCGGGCGCUCCCCGCCGGAGAUGAGGAAACUGAGGCUCAGAGAGGUCACAUGGCUUGCUCGAGGCCCCCCAGCCAGUGUGACAACAGAGGAUUGAGCAUCA` is reported as 0.0631 ratio.
With `GGGAGUUCUACAGUCCGACGAUCUUUGAGGAAGGUGUGGGGAAGCCCGCCAAGCAGCUGCAGGACCUCCGGAACGCAUCCCGGCUCCUGCGGGUGAAUCCCGAGAGCACGACUUCUGUGGUCUGAGGCUCUGCUCUGUGUCUUCAACAGAGGAUUGAGCAUCA` the bound/input enrichment was 0.0372 ratio.

Sample 2 — method: universal PBM; form: double-stranded DNA, one strand shown; medium: in vitro; tested at: not given; direction: higher = stronger binding
Target: Sal-like protein 4, full length isoform B (SALL4, Homo sapiens, UniProt Q9UJQ4-2, residues 1-616)
Setting: 8-mer, flanks averaged, mean of replicates
Construct (chain): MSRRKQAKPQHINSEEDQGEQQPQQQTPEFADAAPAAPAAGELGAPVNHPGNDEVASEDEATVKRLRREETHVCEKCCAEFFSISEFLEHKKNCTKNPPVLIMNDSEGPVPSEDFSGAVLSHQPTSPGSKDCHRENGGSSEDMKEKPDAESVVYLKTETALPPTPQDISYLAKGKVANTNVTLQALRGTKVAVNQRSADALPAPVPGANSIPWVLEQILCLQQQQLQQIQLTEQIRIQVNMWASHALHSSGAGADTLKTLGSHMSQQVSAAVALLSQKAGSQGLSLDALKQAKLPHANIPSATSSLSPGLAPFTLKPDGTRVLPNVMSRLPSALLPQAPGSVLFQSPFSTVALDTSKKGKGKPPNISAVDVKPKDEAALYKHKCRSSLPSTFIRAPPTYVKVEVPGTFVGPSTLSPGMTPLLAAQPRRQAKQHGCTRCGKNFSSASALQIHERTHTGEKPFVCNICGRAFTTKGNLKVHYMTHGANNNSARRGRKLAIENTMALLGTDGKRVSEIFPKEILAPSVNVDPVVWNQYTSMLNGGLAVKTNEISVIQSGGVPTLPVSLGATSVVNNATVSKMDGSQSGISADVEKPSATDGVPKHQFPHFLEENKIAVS
`ACCGGCAC` gave an E-score of -0.163.
The E-score of `AACTGTGA` is reported as 0.0367.
The E-score of `GCTGGCTA` is reported as -0.261.

Sample 3 — method: protein binding microarray; form: double-stranded DNA, one strand shown; medium: in vitro; tested at: not given; reference: not given; direction: higher = stronger binding
Target: Histone acetyltransferase KAT6A, winged helix 1, GST fusion (KAT6A, Homo sapiens, UniProt Q92794, residues 1-85)
Setting: 8-mer, flanks averaged, mean of 2 arrays, mostly near background
Construct (chain): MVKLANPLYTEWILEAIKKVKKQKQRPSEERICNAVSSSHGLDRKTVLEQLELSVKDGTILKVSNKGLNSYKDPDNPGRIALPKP
The E-score of `CTAATAGA` is reported as -0.168.
For `ACAGGTCT`, the E-score was -0.105.
`AGCTGTAC` gave an E-score of -0.0121.
`GACGAGAC` gave an E-score of -0.103.

Mixed results
For `PhoQ, residues 284 288 289 292 302 303 SNGLAW`, the fold induction was 16.3 (PhoP, residues 12 14 15 18 19 VQGLL (Escherichia coli, UniProt P23836); Sort-seq, item: YFP reporter; E. coli; PhoQ-PhoP variant library, with: 10 µM Mg2+; reference: high Mg2+ state, higher = stronger signaling).

For quick reference, copied from above (sample 2):
The E-score of `AACTGTGA` is reported as 0.0367.
